# Measured values from different studies.
# Every numbered part comes from another study and shows a few of its results, in no order. Several values in a cell are separate wells, animals, samples, runs or records.
# UniProt P46934, sequence (whole entry, looked up): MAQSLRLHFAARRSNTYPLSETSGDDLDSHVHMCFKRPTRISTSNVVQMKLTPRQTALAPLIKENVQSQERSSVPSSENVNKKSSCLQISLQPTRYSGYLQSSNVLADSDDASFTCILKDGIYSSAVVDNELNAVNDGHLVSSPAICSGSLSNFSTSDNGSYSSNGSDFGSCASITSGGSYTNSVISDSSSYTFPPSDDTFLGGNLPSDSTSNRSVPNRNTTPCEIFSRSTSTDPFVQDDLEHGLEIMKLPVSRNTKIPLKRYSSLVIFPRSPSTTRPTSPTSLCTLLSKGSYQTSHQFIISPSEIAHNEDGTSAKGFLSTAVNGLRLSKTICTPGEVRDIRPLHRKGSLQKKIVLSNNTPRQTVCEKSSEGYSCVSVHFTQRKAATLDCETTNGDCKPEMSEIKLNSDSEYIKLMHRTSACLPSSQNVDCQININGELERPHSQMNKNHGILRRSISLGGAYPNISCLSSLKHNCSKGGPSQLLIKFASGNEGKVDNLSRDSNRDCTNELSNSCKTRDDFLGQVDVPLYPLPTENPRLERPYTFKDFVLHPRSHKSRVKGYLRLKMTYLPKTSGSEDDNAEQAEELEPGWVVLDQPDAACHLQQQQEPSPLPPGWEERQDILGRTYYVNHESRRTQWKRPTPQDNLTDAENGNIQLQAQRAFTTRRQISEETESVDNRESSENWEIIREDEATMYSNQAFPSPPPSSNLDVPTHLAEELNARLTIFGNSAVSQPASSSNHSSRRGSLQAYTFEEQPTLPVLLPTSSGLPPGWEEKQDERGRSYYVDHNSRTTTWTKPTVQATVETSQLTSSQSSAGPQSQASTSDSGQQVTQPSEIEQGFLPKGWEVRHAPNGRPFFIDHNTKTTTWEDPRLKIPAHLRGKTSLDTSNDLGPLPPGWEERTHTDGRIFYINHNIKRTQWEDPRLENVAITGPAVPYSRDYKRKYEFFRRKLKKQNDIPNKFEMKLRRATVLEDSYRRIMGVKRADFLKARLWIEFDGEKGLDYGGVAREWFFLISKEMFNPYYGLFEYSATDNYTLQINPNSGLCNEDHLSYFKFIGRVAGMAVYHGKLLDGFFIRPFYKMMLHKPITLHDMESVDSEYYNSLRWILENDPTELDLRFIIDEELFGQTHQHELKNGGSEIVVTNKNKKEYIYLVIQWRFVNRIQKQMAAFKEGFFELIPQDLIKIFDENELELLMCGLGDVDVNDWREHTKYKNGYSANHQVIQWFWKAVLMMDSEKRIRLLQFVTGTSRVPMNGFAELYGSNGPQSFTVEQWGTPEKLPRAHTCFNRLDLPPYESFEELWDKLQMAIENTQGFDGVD
# UniProt P05164, sequence (whole entry, looked up): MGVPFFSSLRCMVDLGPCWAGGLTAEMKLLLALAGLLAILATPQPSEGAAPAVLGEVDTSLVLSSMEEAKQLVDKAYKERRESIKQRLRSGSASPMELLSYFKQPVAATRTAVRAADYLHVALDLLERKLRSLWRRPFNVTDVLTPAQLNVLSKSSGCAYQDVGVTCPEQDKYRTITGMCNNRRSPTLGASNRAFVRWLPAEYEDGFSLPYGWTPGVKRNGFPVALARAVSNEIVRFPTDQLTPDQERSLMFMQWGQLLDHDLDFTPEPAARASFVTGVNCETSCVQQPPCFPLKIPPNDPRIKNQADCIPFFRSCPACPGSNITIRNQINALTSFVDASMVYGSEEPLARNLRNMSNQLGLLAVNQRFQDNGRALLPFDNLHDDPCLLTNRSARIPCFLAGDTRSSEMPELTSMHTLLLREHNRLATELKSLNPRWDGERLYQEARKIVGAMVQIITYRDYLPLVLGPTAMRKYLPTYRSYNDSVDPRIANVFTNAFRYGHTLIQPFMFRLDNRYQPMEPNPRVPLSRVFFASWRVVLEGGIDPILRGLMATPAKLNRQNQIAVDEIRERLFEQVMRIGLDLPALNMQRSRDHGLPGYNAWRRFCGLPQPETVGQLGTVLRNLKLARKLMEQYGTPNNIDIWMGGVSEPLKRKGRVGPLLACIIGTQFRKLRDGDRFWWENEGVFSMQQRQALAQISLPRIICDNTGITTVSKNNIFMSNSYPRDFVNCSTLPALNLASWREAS
# UniProt Q05397, sequence (whole entry, looked up): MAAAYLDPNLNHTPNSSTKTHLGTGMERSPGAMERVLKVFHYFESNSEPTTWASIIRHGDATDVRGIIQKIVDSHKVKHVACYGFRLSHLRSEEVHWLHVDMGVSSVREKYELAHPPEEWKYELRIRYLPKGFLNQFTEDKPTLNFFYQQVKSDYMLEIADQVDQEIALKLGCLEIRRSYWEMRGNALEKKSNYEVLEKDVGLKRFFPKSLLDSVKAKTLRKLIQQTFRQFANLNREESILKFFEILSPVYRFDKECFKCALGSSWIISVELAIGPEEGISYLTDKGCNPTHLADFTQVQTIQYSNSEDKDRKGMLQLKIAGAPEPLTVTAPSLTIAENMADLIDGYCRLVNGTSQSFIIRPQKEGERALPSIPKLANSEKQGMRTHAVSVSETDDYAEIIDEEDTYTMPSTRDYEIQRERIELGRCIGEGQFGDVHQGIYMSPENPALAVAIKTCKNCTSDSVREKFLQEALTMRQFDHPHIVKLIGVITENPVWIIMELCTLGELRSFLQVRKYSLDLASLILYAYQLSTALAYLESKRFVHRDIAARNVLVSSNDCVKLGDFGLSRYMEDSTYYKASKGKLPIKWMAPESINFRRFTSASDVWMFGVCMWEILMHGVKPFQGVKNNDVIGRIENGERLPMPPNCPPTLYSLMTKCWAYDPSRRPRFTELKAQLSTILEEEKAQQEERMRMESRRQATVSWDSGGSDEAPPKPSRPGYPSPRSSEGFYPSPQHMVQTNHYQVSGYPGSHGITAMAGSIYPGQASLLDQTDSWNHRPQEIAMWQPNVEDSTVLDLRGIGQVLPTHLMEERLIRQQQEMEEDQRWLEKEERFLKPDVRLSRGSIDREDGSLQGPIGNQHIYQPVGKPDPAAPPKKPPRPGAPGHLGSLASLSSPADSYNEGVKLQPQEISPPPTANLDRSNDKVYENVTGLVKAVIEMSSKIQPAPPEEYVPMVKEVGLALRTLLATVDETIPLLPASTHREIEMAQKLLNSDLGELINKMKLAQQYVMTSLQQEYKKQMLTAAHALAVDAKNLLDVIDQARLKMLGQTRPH
# UniProt Q99808, sequence (whole entry, looked up): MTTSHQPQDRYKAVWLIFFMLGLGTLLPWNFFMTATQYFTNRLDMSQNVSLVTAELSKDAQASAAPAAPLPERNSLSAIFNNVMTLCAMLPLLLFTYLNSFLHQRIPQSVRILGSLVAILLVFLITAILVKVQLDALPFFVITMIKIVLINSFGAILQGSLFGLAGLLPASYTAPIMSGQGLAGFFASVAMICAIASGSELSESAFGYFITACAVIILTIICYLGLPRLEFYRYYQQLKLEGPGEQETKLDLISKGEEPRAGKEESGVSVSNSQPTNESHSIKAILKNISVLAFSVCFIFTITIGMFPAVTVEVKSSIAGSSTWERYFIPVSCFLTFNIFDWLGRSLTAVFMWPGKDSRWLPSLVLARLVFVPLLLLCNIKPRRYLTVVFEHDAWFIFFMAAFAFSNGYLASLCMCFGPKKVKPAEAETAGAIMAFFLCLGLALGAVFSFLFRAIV

# Sample 1 — cell line: Gaucher fibroblasts L444P/L444P; technique: 4-MUG hydrolysis, cell lysate; concentration: 1 µM; relative to: DMSO
Compound,GCase activity
Ic1ccc(Nc2nc(NCCN3CCOCC3)nc(N3CCCCC3)n2)cc1,99.9% and 98.2% and 93% and 101% and 100%
Ic1ccc(Nc2nc(NCCN3CCOCC3)nc(N3CC4CCC(C3)O4)n2)cc1,99.2% and 97.8% and 98.6% and 99.9% and 105%
Ic1ccc(Nc2nc(NCCN3CCOCC3)nc(NC3CCCCC3)n2)cc1,92.3% and 107% and 104% and 93.7% and 93.5%
CCOc1ccc2nc(Sc3nc(N4CCOCC4)nc(N4CCOCC4)n3)sc2c1,95.4% and 99.3% and 90.6% and 86.6% and 110%
Ic1ccc(Nc2nc(NCCc3c[nH]c4ccccc34)nc(NCCN3CCOCC3)n2)cc1,90.4% and 94.4% and 98.8% and 88.7%
CCN(CC)c1nc(NCCN2CCOCC2)nc(Nc2ccc(I)cc2)n1,101% and 88% and 89.2% and 88.7%
CCOc1ccc2nc(Sc3nc(Nc4ccc(OC)cc4)nc(N4CCOCC4)n3)sc2c1,122% and 123% and 124% and 119%

# Sample 2 — route: intravenous
# Compound: Cc1ncsc1-c1ccc(C(CO)NC(=O)C2CC(O)CN2C(=O)C(C(C)C)n2cc(-c3ccc(COc4c(-c5c(C)c(F)cc6[nH]ncc56)c(C5CC5)cc5c(N6CC7CC6CN7)nc(OC6CCOCC6)nc45)cc3)nn2)cc1 (stereo not shown)
species,matrix,dose,time,concentration
mouse (PK-59 xenograft),tumor,10 mg/kg,48 h,299 ng/g
mouse (PK-59 xenograft),pancreas,10 mg/kg,48 h,41.3 ng/g
"mouse, PK-59 xenograft",pancreas,10 mg/kg,72 h,20.9 ng/g and 9.23 ng/g and 15.6 ng/g
male Balb/c nu/nu mouse (PK-59 xenograft),tumor,30 mg/kg,24 h,800 ng/g
mouse (PK-59 xenograft),tumor,10 mg/kg,72 h,137 ng/g
male Balb/c nu/nu mouse (PK-59 xenograft),tumor,10 mg/kg,2 h,441 ng/g
mouse (PK-59 xenograft),plasma,30 mg/kg,72 h,9.15 ng/mL and 6.2 ng/mL and 4.31 ng/mL
"male Balb/c nu/nu mouse, PK-59 xenograft",plasma,10 mg/kg,24 h,13.8 ng/mL and 13.2 ng/mL

# Sample 3 — read-out: thermal unfolding; technique: differential scanning fluorimetry; concentration: 5.5 µM; reading: higher = more unfolded
# SMILES: C[C@@H]1CN(c2ccc(-c3cc(C(=O)NCCOCCOCCOCCOCCOCCOCCNC(=O)/C=C/c4[nH]cc(C(=O)N[C@@H](CC(N)=O)c5ccc(F)c(Cl)c5)c4-c4ccc(Cl)cc4F)ccc3F)cc2NC(=O)c2ccc(F)cc2C(F)(F)F)C[C@H](C)N1C
# WDR5: WD repeat-containing protein 5 (WDR5, Homo sapiens, UniProt P61964)
# DCAF1: DDB1- and CUL4-associated factor 1 (DCAF1, Homo sapiens, UniProt Q9Y4B6)
# UniProt Q9Y4B6, sequence (whole entry, looked up): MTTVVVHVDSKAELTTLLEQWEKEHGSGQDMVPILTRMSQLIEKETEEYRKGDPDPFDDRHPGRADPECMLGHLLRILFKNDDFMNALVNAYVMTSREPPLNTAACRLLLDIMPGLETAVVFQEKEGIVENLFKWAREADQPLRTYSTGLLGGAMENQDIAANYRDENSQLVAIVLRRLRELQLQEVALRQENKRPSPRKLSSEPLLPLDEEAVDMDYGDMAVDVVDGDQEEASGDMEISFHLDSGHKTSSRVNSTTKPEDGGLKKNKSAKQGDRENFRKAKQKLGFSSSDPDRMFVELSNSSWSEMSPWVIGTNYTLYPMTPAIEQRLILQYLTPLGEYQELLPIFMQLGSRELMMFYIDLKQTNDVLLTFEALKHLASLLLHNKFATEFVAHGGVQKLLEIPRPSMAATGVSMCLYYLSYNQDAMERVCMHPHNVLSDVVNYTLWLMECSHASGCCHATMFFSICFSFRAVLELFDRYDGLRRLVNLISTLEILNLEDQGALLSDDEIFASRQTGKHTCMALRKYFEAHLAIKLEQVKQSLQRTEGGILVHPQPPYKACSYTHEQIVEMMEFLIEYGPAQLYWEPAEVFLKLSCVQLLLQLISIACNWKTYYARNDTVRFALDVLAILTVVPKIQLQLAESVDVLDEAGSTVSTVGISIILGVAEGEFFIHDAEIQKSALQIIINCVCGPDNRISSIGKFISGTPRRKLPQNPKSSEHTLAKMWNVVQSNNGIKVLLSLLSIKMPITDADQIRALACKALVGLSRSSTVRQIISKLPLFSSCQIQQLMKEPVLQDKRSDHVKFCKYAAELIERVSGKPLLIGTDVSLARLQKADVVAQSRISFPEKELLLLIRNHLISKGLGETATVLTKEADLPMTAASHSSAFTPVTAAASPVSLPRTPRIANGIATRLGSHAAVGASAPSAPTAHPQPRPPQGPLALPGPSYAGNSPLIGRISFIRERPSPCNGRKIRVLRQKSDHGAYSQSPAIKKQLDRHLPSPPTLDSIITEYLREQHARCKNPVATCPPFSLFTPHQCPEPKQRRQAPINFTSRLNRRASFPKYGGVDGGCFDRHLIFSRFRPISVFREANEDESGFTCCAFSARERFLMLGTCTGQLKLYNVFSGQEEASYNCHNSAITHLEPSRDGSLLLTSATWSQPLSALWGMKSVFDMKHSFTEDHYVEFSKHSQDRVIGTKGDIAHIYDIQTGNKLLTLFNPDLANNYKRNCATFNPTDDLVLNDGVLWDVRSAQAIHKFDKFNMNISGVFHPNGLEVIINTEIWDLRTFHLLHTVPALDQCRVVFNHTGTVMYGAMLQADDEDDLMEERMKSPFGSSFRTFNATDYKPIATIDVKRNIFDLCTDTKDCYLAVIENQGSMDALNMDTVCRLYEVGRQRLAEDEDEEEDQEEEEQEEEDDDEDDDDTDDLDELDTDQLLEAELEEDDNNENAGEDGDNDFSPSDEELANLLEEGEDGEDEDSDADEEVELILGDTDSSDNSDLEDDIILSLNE
target,temperature,SYPRO Orange fluorescence [a.u.]
WDR5,87.81 °C,58100
WDR5,70.01 °C,27300
WDR5,84.01 °C,63600
WDR5,45.8 °C,14800
WDR5,39.8 °C,14100
DCAF1,29.2 °C,8180
DCAF1,55.21 °C,27600
DCAF1,27.4 °C,7740
WDR5,64.61 °C,16000

# Sample 4 — cell line: U-87 MG; concentration: concentration not given; relative to: DMSO
# Structure (SMILES): CCN1/C(=C/C=C2\CCCC(/C=C/C3=[N+](CC)c4ccccc4C3(C)C)=C2NCCCCCCCCN2CCC(Nc3nc4ccccc4n3Cc3ccc(F)cc3)CC2)C(C)(C)c2ccccc21
item,log2 fold change
CCL3 mRNA,1.75
RAB18 mRNA,0.997
COL1A2 mRNA,-2.64
KLF6 mRNA,-0.906
FAM171A1 mRNA,-1.18
ARHGAP31 mRNA,-0.974
MYCL mRNA,2.99
MYO3B mRNA,-2.56
HMGN2 mRNA,-1.13
BCL3 mRNA,-0.841
C18orf54 mRNA,-2.03
CLEC11A mRNA,-1.16
HDAC9 mRNA,1.9
LIN28B mRNA,-1.53
NFKBIZ mRNA,2.31
ETS2 mRNA,1.33

# Single results of other studies
SMILES,tested on,test,test system,conditions,how to read,endpoint,result
Cl.NC(=O)/C=C/CNCCCN1c2ccccc2CCc2ccc(Cl)cc21,"E3 ubiquitin-protein ligase NEDD4, HECT domain (Homo sapiens, UniProt P46934)","enzyme activity, inhibitor, Ub-TR-FRET",HECT domain,1.235 µM,higher = more chain formation,ubiquitin chain formation AUC,137000 a.u. and 135000 a.u.
Cc1nc(C)c(C=[N+]([O-])C(C)(C)C)nc1C,CDK5,Western blot,MPTP mouse model,"30 mg/kg, unit not given",relative to: β-actin,CDK5 protein level,116 and 123 and 174 and 145
NC/C(=C\F)COc1ccc(Cl)c(-c2cc(=O)[nH]c(=S)n2CC(N)=O)c1,"Myeloperoxidase (MPO, Homo sapiens, UniProt P05164)","enzyme activity, inhibitor, fluorescence",,6.9 nM,,inhibition,4.73%
O=C(O)C1Oc2cc(F)ccc2N(Cc2ccccc2)C1=O (stereo not shown),Arabidopsis thaliana,root length,"Col-0, seedlings",12.5 µg/mL,,inhibition,12.4%
COc1cc(C(=O)OCCCN2CCCN(CCCOC(=O)c3cc(OC)c(OC)c(OCc4ccc([N+](=O)[O-])cc4)c3)CC2)cc(OC)c1OC,"Equilibrative nucleoside transporter 1 (SLC29A1, Homo sapiens, UniProt Q99808)","adenosine uptake, inhibitor",,together with: [3H]adenosine,,Hill slope,-0.958
O=C(Nc1ccccc1)Nc1cccc(Oc2ccc3nccn3n2)c1,"Focal adhesion kinase 1 (PTK2, Homo sapiens, UniProt Q05397)",cell-free assay,,1 µM,,remaining signal,100%

# Repeated from above (sample 3):
target,temperature,SYPRO Orange fluorescence [a.u.]
WDR5,84.01 °C,63600
WDR5,45.8 °C,14800
WDR5,39.8 °C,14100
DCAF1,29.2 °C,8180
